Measurements gathered from unrelated publications.
Each numbered part is a random draw from the data of one study; scales do not carry over between parts.

Study 1
Target: RNA binding protein fox-1 homolog 2, RRM domain, GST-SBP tag (RBFOX2, Homo sapiens, UniProt O43251-10, residues 100-194)
Technique: RNA Bind-n-Seq
Molecule type: RNA
Sample: in vitro
Tested at: 365 nM
Notes: natural RNA segment, single round, ends assumed
Relative to: no-protein control
Direction: higher = stronger binding
Constant ends, left off below: GGGAGUUCUACAGUCCGACGAUC … UGGAAUUCUCGGGUGCCAA
Strand | RBNS enrichment (R)
UUCAUCAGUUUUGCAUCCUACUGAGAAAUGUUAGUGAUUUUGAUACUUAAAUCCUUAAAAGAUUGCUUCGUUUUUAAAAUAACGCAUGUCCAUUUUAGAAAAUUAGAAAA | 32.8
GAGUCUAUGCCCUAUAAGCUCAACGCCAAAACUGGCCUCAUUGACUACAACCAGCUGGCACUGACUGCUCGACUUUUCCGGCCACGGCUCAUCAUAGCUGGCACCAGCGC | 0.431
UGUCUCCCUGGGCAAGGGAAGGGGACCAGGAGAAAGGUGAUGAGGCCCCAGGGACUCCUGUCAUCUGGUACUCUCCCUCUUACAGAGGAGAGAGCUAGUGGCUUAAAAGG | 0.654
CAAAUGUGAAUAUGUGUAAAAGUGCUUUUCAGAACUGCAUUACUAUGAGAAAACAUCAAAACUGCUGUAGUUUUCCAUUUCUACUGUAUUUCAGUUGCAACCUAUUUUUA | 0.801
AUUGUCAGUCUGUGUCACAUCCAGUGAUUGUUUUGGUUUCUGUUCCCUUUCUGACUGCCCAAGGGGCUCAGAACCCCAGCAAUCCCUUCCUUUCACUACCUUCUUUUUUG | 0.575
AAGACACACAGCAGCAAUGACCCCUCUCUAGGCCUGUCGCCUCCCUCCGCCUCCCGACCAGAGGGGUCCCUCAUGCCUGGCUGGCAGCCUCCUGGCAAGUGAGAAAGCCC | 0.412
UGGCACUUUGUUUUGACCUCUGGUAUAGAACUCUGACUUUUAUAGUUUUAAAAUGAUCAAUCUUUGUAUGAAAGUCAGUUUUCUUUCUUUAGGUAUCAGAAGAUUUUGCC | 0.739
GCAGAUACUGUGAGGCACAGAUUAUAUUGUCAAGCUACUGUUGCUAUGGUUAUAGACACCCACUUCAGACAUUACCAAGAGUCGAUCACUGACUUAAAAAUUUUAAUUUC | 0.583
CUUUGUAAUCUCUGCCUGUGAUUUUCUUUUCUAAAUGACGACUCCGUGUAACCACCUGGACUAAGUUGAGAAGGAAACUGCCAAAUGCUUUGGGUUUUUAGGGUUUUAAU | 0.466
AGCAUGCUGCGCAGACACUGGCAUAGCAUGCCCUGGGUACACUAACACUCACCUGCUCCCUUUCGUUCCGCUUGUCUUGGCAGUUGACAAGACAUUCGUUUGCUUUAGUG | 0.423
UGACUUUGGGAAGGAAUUUGAGGACCUCCAAGAUGUAAUGUUGGGAAAAUGAAACCAUAAACUCUAAGUGGCUCUUAUAGGUGCUGAAGGGCUUAUUCUCAGCUAACCCU | 0.5
CCCAGCCCCCCUUCCCAUUUGUUUCUCCUUCUCUAAUCCCAGGGACUAUGGUAGAGACUUGCUGCUCCUAACUCCCCAGUUACCCACCCUCCUCUGCCCUUUCUCGGGAU | 0.757

Study 2
Target: RING finger protein unkempt homolog, zinc fingers 1-6, GST-SBP tag (UNK, Homo sapiens, UniProt Q9C0B0, residues 30-357)
Sequence of UniProt Q9C0B0 (30-357, looked up): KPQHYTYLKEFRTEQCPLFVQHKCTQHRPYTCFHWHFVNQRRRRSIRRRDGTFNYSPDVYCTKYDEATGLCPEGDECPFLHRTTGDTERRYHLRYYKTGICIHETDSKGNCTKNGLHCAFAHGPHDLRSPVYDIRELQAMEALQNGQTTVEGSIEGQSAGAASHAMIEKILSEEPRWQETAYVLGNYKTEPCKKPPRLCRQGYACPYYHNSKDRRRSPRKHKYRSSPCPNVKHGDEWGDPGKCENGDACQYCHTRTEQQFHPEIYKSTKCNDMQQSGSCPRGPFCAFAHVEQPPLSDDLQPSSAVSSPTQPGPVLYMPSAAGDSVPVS
Technique: RNA Bind-n-Seq
Molecule type: RNA
Sample: in vitro
Tested at: not given
Notes: RNA with constant flanks, human and mouse sites, ends assumed
Relative to: input RNA pool
Direction: higher = stronger binding
Constant ends, left off below: GGGAGUUCUACAGUCCGACGAUC … CAACAGAGGAUUGAGCAUCA
Strand | bound/input enrichment [ratio]
CUUCUGAAGGCAGCUGCAGGUCCAUCCCAUUGACAUAGCUGCUAUGGCACAGGAGCUUUGUAGCUGUGGAACCAACACUGCUUUUGCAUACUGUGUAGAAGAAUUCUUUAGGAGUGGGGA | 0.488
AUUGGAGAACAUCAAUUAACAGGCCAUAAAGUGGCAGUUAAAAUCUUAAAUAGACAGAAGAUUCGCAGUUUAGAUGUUGUUGGAAAAAUAAAACGAGAAAUUCAAAAUCUAAAACUCUUU | 0.253
AUGGCCAAUGUGCUUUGUAACAGAGCCAGACUGGUUUCCUAUCUCCCAGGAUUUUGCUCUUUAGUUAAAAGGGUUGUCAAUCCCAAAGCCUUUUCGACUGCAGGAUCAUCAGGUUCGGAU | 0.124
CAACAAAAGAUAAACAAAUUUGCACGGAAUACAAGUAGAAUCACAGAGCUGAAGGAAGAAAUAGAAGUAAAAAAGAAACAACUCCAAAACCUAGAAGAUGCUUGUGAUGACAUCAUGCUU | 1.53
GAAUAUAUGAUGGACACCGUAAUUUCCCUUUUGACUGGUUUGUCAGACUCCCAAGUCAGAGCUUUUAGGCAUACAAGUACCCUUGCUGCAAUGAAGCUGAUGACUGCUCUGGUGAAUGUU | 0.613
GCAAAGAUGGUAUGUUCAGAUUCCCCAUUUGCCGGGGCACUUAGAAAACGACUGCUUGUACUCCAGCGUGUCUUUUAUGCACUUUCUAAUAAAUACCAUGACAAAGGCAAGGUGAAGCAG | 0.271
GACAUAAAAUCAGUCUUUCACUAACUAACCUCUAUUCCUUGGGAUUGUAGAAAUUUAAUUUUUUAAUGUGUAAAUUACUCCUACCCUGUACAGCUGUUUCCUACCCACUCUUGUAAACUC | 0.935
AGAGAACAAAUCUCAGUGAAAUCAAGUGUUCAGGAAAUACCACGUACUAACGGGUUGGUAUCCGUUGAUGAAGAAUCCUAUGGUGCACUUUAUCAAGCUACUGUAGAAACAACCAGAAGU | 0.254
GCAGAAGUGAACAAAUUGAGAAGACAAAUCACUCAGAAGAAAAAUGAAAAGGAACAAGAAAGAAGAUUGCAGCAGGCCCUGUUAAGCAGACAGAUGCCAUCCGAAAGUCUGGAGCCAGCG | 0.469
UUUUCAAAAUGUAAAAAAGCCUUUCGUGAAGGAUCUAGGAAAUCAUCAAGGGUUAAGGGUUCAGCACCAGAAAUUGAUCCUUCAUCUGAUAGUUCAAAUUUUGUUUGGGAAACAAAAAUC | 0.448
AGCUCCAGUUUGGCAGUUGUGGAUUUAAUUGAUGCCAUCCAGCCAGGCUGUAUAAACUAUGACCUUGUGAAGAGUGGCAAUCUAACAGAAGAUGACAAGCACAAUAAUGCCAAGUAUGCA | 0.165

Study 3
Target: Histone acetyltransferase KAT6A, both winged helices, GST fusion (KAT6A, Homo sapiens, UniProt Q92794, residues 1-181)
Technique: protein binding microarray
Molecule type: double-stranded DNA, one strand shown
Sample: in vitro
Tested at: not given
Notes: 8-mer, flanks averaged, mean of 2 arrays, mostly near background
Relative to: not given
Direction: higher = stronger binding
Residues (chain): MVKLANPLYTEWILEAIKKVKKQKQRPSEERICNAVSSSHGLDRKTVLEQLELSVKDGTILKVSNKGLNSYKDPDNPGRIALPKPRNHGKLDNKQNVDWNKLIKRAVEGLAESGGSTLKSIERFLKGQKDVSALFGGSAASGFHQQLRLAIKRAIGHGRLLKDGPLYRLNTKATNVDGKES
Strand | E-score
GGAAATGA | -0.0869
CGAGCGAG | 0.0737
CGACGTCC | 0.128
GACTAATC | 0.0609
ATTCCAGG | -0.207
AATTGGAC | -0.0873
GGCTTATA | -0.102
AAATTAGC | 0.0509
ATACTGAG | -0.0429
CCCACTCC | -0.0572
ACAATTGT | 0.0314
CCCGAGGC | 0.159
CAGATTGA | 0.04
CACCAAAA | -0.145
CAGGTAAC | -0.193
TAATAACA | 0.0579
GCTAAAGA | 0.0204

Study 4
Target: Interferon regulatory factor 5, full length, phosphomimetic (IRF5, Homo sapiens, UniProt Q13568-2, residues 1-514, K96S/S451D/S453D/S456D/S462D)
Technique: protein-binding microarray
Molecule type: double-stranded DNA, one strand shown
Sample: in vitro
Tested at: 250 nM
Notes: 60-bp whole probe
With: salmon DNA 0.4 mg/ml
Relative to: random background probes
Direction: higher = stronger binding
Constant ends, left off below: GCCTAGCAC … GTCTTGATTCGCTTGACGCTGCTG
Strand | log fluorescence [z-score]
TTAGGTCTCCTTTTCTTTTAGTGCTAG | 0.414
TTAAGTCTCCTTCTCCTTTAGTGCTAG | 0.253
GACGATATCGGGTTTAGAGACGTGCTA | 1.58
TTAGAACTGAGTCGCGATTAGTGCTAG | 0.078
GACGGACTGGCTATCGGGACGTGCTAG | 0.325
GACTGTTCCCTTTTCCTGACGTGCTAG | 0.567
TTATATATCGGGTATCGATTAGTGCTA | 5.86
GACGATATCAGTCTCGAGAAGTGCTAG | 1.44
TAAGAACTGGGGTATCGATTAGTGCTA | 2.64
GACGGTTTCGACTCTCGGGACGTGCTA | 5.36
GATGGTCTCGGTTTCGGGACGTGCTAG | 3.82
TTAGCTATCCTTTTCCTTTAGTGCTAG | 0.797
GACGAGATCAGTATCGAGACGTGCTAG | 2.3
TAAGGTTTCGACTATCGGTTAGTGCTA | 9.26
GACGATTTGAGTATCGAGACGTGCTAG | 1.82
TACGATTCCAGTTTCGAGACGTGCTAG | 5.43
TTAGCTCTCAGACTGGATTAGTGCTAG | -0.107
TCAGGTATCGGGACTGGGTTAGTGCTA | 1.5
TAAGGTTTCGGGACTGGGTTAGTGCTA | 3.89
GACGCACTGGGTTTCGGGACGTGCTAG | 2.47
TTAGGTATCGGGTATCGGTTGGTGCTA | 6.31
AACAGTTCATGTTTTGGAAAGTGCTAG | 0.53
TTAGGTTTCCTTCTCCTTTTGTGCTAG | 1.31
GACGGTTTCGACTTTCGGGATGTGCTA | 8.78
TTAGATTTCGGAACTGGATTAGTGCTA | 2.89

For quick reference, copied from above (study 4):
Strand | log fluorescence [z-score]
TTAGCTCTCAGACTGGATTAGTGCTAG | -0.107
TCAGGTATCGGGACTGGGTTAGTGCTA | 1.5
TAAGGTTTCGGGACTGGGTTAGTGCTA | 3.89
GACGCACTGGGTTTCGGGACGTGCTAG | 2.47
TTAGGTATCGGGTATCGGTTGGTGCTA | 6.31
AACAGTTCATGTTTTGGAAAGTGCTAG | 0.53
TTAGGTTTCCTTCTCCTTTTGTGCTAG | 1.31
GACGGTTTCGACTTTCGGGATGTGCTA | 8.78
TTAGATTTCGGAACTGGATTAGTGCTA | 2.89
